Measurements collected from several papers.
Parts stem from different laboratories: compare values within a part only. Substitutions count along the parent as printed.

Block 1
Target: RNA binding protein fox-1 homolog 2, RRM domain, GST-SBP tag (RBFOX2, Homo sapiens, UniProt O43251-10, residues 100-194)
Technique: RNA Bind-n-Seq
Form: RNA
Matrix: in vitro
Concentration: 365 nM
Setting: natural RNA segment, single round, ends assumed
Baseline: no-protein control
Direction: higher = stronger binding
Endpoint: RBNS enrichment (R)
Residues (chain): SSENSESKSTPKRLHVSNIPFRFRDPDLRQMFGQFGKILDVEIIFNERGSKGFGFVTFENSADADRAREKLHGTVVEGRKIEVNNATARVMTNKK
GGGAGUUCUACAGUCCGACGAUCCUGUCUUUUCGACUAAGUAGUAUUGUCAAGAUAAUGGGGCCUGUGACUUGAAUGGAUAGAAUAGAAAUGAAUAAGCUGGUUUUUGUUUUUCCAAAUGAGAUUUAGAUUUGUGGAAUUCUCGGGUGCCAA: 0.595
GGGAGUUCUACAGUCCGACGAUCAAGAGUCUAACUCCCUCCUCCCUAGGGAUUCCUACCCCACAAAGGUCUCAUGGACCAUAGAACUCACAGUACCUGGAUCUGCCCAGCAUGCCCUUUGGACCCAGUUCCCAUGGAAUUCUCGGGUGCCAA: 5.62
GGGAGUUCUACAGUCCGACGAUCCCACAGACAUUGGUCUUGAGAGAGCCUUGGCUGUGUAUCAAUUACAAAGCCCUGCCAGCAAGGGGAUGGCACCACUGGAGCUCUUGCCAAAUCACUCUCAGCCCUGUAUUUGGAAUUCUCGGGUGCCAA: 0.446
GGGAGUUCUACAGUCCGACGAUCACAGCUUUCUCUCUCAGCCAUUGUUCACCCCACUUGAAAAUUCAAACAAGAAAACUUUGCUUCAAAGAUCUCAUGUGUGGGAACCACAGCGCCUGGUUGCCUUUCUCCUGUGGAAUUCUCGGGUGCCAA: 0.394
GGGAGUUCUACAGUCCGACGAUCCAACUGUAUCACUGAGGUAACUCCUCAGUGUUGGGUCCAUUACAGCCUUGGAGCAAAGUUGACCACCACCUUGUGUGGAUCAAGAAGAGAAGAAACUACUUUGGAGUUUUUGGAAUUCUCGGGUGCCAA: 0.263
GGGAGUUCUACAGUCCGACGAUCGCAAAUUAAUUGAGAAUGUAUGAAAGUCAUGAAUGUACAAGCCAAAUAAAGCUCUUUAUUAACCCUGAUGUAUCGUGCUCUUGUAUUCUUUGUUGAAGGGAUGAAGCCAAUGGAAUUCUCGGGUGCCAA: 1.25
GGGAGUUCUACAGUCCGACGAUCUACCCAGCACAUGAAAGACCUACAACAUGUGCUUGCCAAAGGAAUGUUAGAAUCUGCUCAUGUGUGUGUCACCAUGCCAAGCCAUGCCAGCCACAGACUGAGGCUUCCGGUGGAAUUCUCGGGUGCCAA: 0.366
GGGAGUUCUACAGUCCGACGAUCGGAGCCAUUCCUGUAGUGAAGGGGGGGUUAUUAUACCCCAGGGCUUCAGAACUCACAGGACAGGGAUUGCUGGAGAACACUGCGAGCUGUGGAGCACACUUAAGGGAUGGUGGAAUUCUCGGGUGCCAA: 1.08
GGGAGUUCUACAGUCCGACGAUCCAUAACCUAAGACUUUAAAAUAAGGCCACACCCAGAUUUGGGAAGGUAGAGGGGGAAAAAAAGUAGUGCCAUGGGGCCACGGGGCCCAGCUUAUUCCGUGUAGAUGCUUGUGGAAUUCUCGGGUGCCAA: 8.07
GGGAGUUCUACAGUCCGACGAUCCAGCAACAAAACCUAGUCCUCUUAGACGUUCUUGCGCUUUGAUUUUUUUAGGGCGUGUGCCCUGUUACACUUAUAGGGCCUAGGAUGCUUGUGUUGAGUAAAAAGGAGAUUGGAAUUCUCGGGUGCCAA: 0.473
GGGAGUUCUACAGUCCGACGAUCGCUACAUAGCAAGAGCCUGUCUCAAAACAAACGAACCUAUGAAGAGCCAGGCAGUCUAUCUAUUUACAUGGCAGUAUACUAGAGAAACUCAGGAAGCAAGAGUGUUCAUCUGGAAUUCUCGGGUGCCAA: 0.718
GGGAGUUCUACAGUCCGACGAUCCUCAGUUCAUGAGAACCCAUUUCCCAGAGGUUCGUUUUGAGCCAAUAGCCUAUUUUGAACCAUUUGAACUGUAGAAAAAUGGCAAAUAUAUACUUACAUGUAUGUUCUUAUGGAAUUCUCGGGUGCCAA: 0.396

Block 2
Target: ATF7, bZIP domain (human)
Technique: DHFR protein complementation
Matrix: yeast
Setting: single substitutions, most at no-binding floor
Baseline: wild-type JUN-FOS pair
Direction: higher = stronger binding
Endpoint: binding fitness
Starting sequence: JUN, bZIP domain (human); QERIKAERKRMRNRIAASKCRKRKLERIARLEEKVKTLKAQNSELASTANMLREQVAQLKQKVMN; partner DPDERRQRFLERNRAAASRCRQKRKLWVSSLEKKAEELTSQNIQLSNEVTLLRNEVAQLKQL
L31F: -1.36 natural log
L31V: -1.36 natural log
E33V: -1.2 natural log
E54T: -1.29 natural log
E32W: -1.13 natural log
L31Q: -1.38 natural log
Q41G: -1.37 natural log
I28M: -1.09 natural log
A29I: -0.936 natural log
V56H: -1.42 natural log
R30W: -0.929 natural log
T37P: -1.53 natural log
A29S: -1.06 natural log
V56L: -1.01 natural log
S43P: -1.43 natural log
K34H: -0.877 natural log
L52K: -1.5 natural log
Q41E: -0.779 natural log
K36M: -0.817 natural log
A46Y: -1.27 natural log

Block 3
Target: Histone acetyltransferase KAT6A, winged helix 2, GST fusion (KAT6A, Homo sapiens, UniProt Q92794, residues 85-181)
Technique: protein binding microarray
Form: double-stranded DNA, one strand shown
Matrix: in vitro
Concentration: not given
Setting: 8-mer, flanks averaged, mean of 2 arrays, mostly near background
Baseline: not given
Direction: higher = stronger binding
Endpoint: E-score
Target sequence (chain): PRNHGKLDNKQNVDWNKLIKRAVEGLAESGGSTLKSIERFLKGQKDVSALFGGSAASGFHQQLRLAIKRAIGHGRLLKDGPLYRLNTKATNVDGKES
CACTATGA: -0.0822
ACATAAGT: 0.0727
CCGTTCCA: -0.0126
AAGGGCTA: -0.0445
GAATGCAA: 0.0493
GGTTAACA: -0.00035
CTAAGGGC: -0.0165
AAGGCTCG: -0.0333
CGAACCAC: -0.0756
AGTAGATG: -0.12
ATTTGACA: 0.113
TACCAATA: -0.0672
CGATTAAC: -0.0602
CAATCCCC: -0.0782
CGCACTTA: -0.0341
CCTTCCGC: 0.0797
CGAACTTC: -0.00834
AGCGATTA: -0.0992
ATGCATGA: -0.02
AGTAGGAA: -0.105
GAGGCGTA: 0.0427
GCGGCCGA: 0.0595
AAACTGAC: 0.00284
AAATTCCC: -0.0737

Block 4
Target: Interferon regulatory factor 5, full length, phosphomimetic (IRF5, Homo sapiens, UniProt Q13568-2, residues 1-514, K96S/S451D/S453D/S456D/S462D)
Technique: protein-binding microarray
Form: double-stranded DNA, one strand shown
Matrix: in vitro
Concentration: 250 nM
Setting: 60-bp whole probe
Added: salmon DNA 0.4 mg/ml
Baseline: random background probes
Direction: higher = stronger binding
Endpoint: log fluorescence
Constant ends, left off below: GCCTAGCAC … GTCTTGATTCGCTTGACGCTGCTG
TTAGGTATCGGGAGTGGGTTAGTGCTA: 1.75 z-score
TCACTTTTATGCTCTTTCACTGTGCTA: 2.55 z-score
TCATATTTTTTTCTAATACTGTGCTAG: 1.25 z-score
TTAGAACTGGGGACTGGATCAGTGCTA: -0.219 z-score
TCCCCGGAGCTGGACAGAAGGTGCTAG: -0.413 z-score
GAGGGGGCAGGGACTCAGGGGTGCTAG: 0.36 z-score
TTGCCTCACCTCACCTGTCCGTGCTAG: -0.0979 z-score
TTAGATTTCCTTTTCCTTTAGTGCTAG: 1.48 z-score
GAGGATTTCGGGTTTCGAGACGTGCTA: 3.99 z-score
GACGATATCAGTTTCGGGACGTGCTAG: 7.41 z-score
GGTTTTCTCTGGTTCTTGCTGTGCTAG: 0.758 z-score
GACGAACTGAGTCTCGTGACGTGCTAG: -0.328 z-score
GACGGTCTCCTTTTCATGACGTGCTAG: 0.316 z-score
TTAGGTATGGGTCTCGGTTAGTGCTAG: 0.0546 z-score
TTAGGTTCCGCTTTCGGTTAGTGCTAG: 9.36 z-score
GACGGTCTCCTTGTCCTGACGTGCTAG: -0.312 z-score
GACAGTTCCCTTTTCCTGACGTGCTAG: 0.333 z-score
TTATAACTGAGTATCGATTAGTGCTAG: 6.38 z-score
TTAGGTATCTGGTTTCGGTTAGTGCTA: 8.95 z-score
TTAGATATCGGGGTTCGATTAGTGCTA: 1.38 z-score
TCATCTCTGGACTGTGTGACTGTGCTA: -0.165 z-score
TTAGCACTGGGGTATCGGTTAGTGCTA: 2.38 z-score

Block 5
Target: CCNE1, cyclin fold, Cln2 fusion (human)
Technique: yeast growth competition, sequencing
Matrix: yeast
Setting: weak parent motif
Baseline: not given
Direction: higher = stronger binding
Endpoint: normalised enrichment score
Starting sequence: CDAN1 docking peptide (human); RGARSQLFPPTEA
R1A: 0.137
Q6A: -0.045
L7A: -0.00706
F8A: 0.274
S5A: 0.403
E12A: -0.043
